Experimental data of several laboratories.
Every numbered part comes from another study and shows a few of its results, in no order.

Sample 1
Target: Interferon regulatory factor 5, full length, phosphomimetic (IRF5, Homo sapiens, UniProt Q13568-2, residues 1-514, K96S/S451D/S453D/S456D/S462D)
Method: protein-binding microarray
Molecule type: double-stranded DNA, one strand shown
Matrix: in vitro
Tested at: 250 nM
Notes: 60-bp whole probe
Together with: salmon DNA 0.4 mg/ml
Relative to: random background probes
Direction: higher = stronger binding
Shared flanks, not repeated: GCCTAGCAC … GTCTTGATTCGCTTGACGCTGCTG
| Strand | log fluorescence |
| --- | --- |
| GACGGTATCGGGTCTGGGGACGTGCTA | 1.89 z-score |
| AGTCTCTTCTGGGACTCATGGTGCTAG | 0.0672 z-score |
| GACGGTTTCATTTCCCTGACGTGCTAG | 2.43 z-score |
| GACGGTTTCGGTTCCGGGCCGTGCTAG | 9.32 z-score |
| TTTGCTCTGTGCATAGGCCTGTGCTAG | 0.0376 z-score |
| GACGGTATCGAGACTGGGGACGTGCTA | 1.16 z-score |
| TTAGATTTCGGGTATGGATTAGTGCTA | 5.48 z-score |
| TTAGGGTTCCTTTTCCTTTAGTGCTAG | 0.314 z-score |
| TTTTTTTTTTTTTTTGGAATGTGCTAG | 1.32 z-score |
| GACGGTATCAGGACTGGGGACGTGCTA | 0.163 z-score |
| TTAGGTTTCCTTATCCCTTAGTGCTAG | 1.01 z-score |
| GACGGACTGGGAATGGGGACGTGCTAG | -0.588 z-score |
| GACGGTATCGGACTGAGGACGTGCTAG | 1.16 z-score |
| TCAGGTTGAACATGAACACTGTGCTAG | -0.27 z-score |
| TTAGGTATCGGTATCGGTTAGTGCTAG | 9.84 z-score |
| GACGAAGTGGGGTTTCGAGACGTGCTA | 1.14 z-score |
| TTAGGACTTGGGTATCGGTTAGTGCTA | 4.22 z-score |
| TCAGTCCTCCTGACTGGGACTGTGCTA | -0.484 z-score |

Sample 2
Target: Histone acetyltransferase KAT6A, both winged helices, GST fusion (KAT6A, Homo sapiens, UniProt Q92794, residues 1-181)
Method: protein binding microarray
Molecule type: double-stranded DNA, one strand shown
Matrix: in vitro
Tested at: not given
Notes: 8-mer, flanks averaged, mean of 2 arrays, mostly near background
Relative to: not given
Direction: higher = stronger binding
Residues (chain): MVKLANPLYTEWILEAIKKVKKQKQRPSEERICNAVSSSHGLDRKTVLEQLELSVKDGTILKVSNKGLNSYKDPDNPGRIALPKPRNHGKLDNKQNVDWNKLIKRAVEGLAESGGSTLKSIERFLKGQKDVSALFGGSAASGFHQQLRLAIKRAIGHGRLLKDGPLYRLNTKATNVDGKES
| Strand | E-score |
| --- | --- |
| AAGCAAGG | -0.234 |
| AGCAGAGC | -0.163 |
| CTTGATGC | -0.0652 |
| ATTAGGCC | -0.0266 |
| GCTCAGAC | -0.171 |
| GAAGGGGC | -0.148 |
| GGTGAGGA | -0.126 |
| TCGGTCAA | 0.0959 |
| GCGGAGCC | 0.168 |
| GCTCTGGA | -0.0153 |
| GAAACTGA | 0.0212 |
| CAGCAAGG | -0.206 |
| CCTGTACG | -0.0365 |
| AAGGGTAA | -0.0916 |
| ACCCCCGT | 0.102 |
| CTCATAGC | -0.0864 |
| CATCGCCC | 0.0788 |
| GAGTACGC | 0.0703 |
| ACTGTTAT | -0.044 |

Sample 3
Target: Ras GTPase-activating protein-binding protein 1, C-terminal RGG region (G3BP1, Homo sapiens, UniProt Q13283)
Chain of UniProt Q13283 (whole entry, looked up): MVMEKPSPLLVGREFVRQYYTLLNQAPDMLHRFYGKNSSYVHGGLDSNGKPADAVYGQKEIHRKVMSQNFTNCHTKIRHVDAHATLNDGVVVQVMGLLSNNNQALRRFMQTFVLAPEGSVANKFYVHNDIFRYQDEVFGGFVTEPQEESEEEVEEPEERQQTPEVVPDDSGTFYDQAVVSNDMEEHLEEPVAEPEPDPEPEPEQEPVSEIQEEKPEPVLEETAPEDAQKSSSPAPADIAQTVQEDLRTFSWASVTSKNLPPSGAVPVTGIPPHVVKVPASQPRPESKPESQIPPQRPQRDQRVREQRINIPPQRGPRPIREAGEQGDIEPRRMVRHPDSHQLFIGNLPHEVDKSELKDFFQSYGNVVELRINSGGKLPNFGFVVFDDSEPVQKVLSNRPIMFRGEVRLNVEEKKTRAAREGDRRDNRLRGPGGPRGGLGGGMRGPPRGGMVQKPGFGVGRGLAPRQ
Method: RNA Bind-n-Seq
Molecule type: RNA
Matrix: in vitro
Tested at: 1 µM
Notes: whole 134-nt RNA, ends assumed
Together with: 150 mM KCl
Relative to: input library
Direction: higher = stronger binding
| Strand | log2 enrichment |
| --- | --- |
| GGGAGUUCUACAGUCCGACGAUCUGGGAGGUGGAUUUUGUUUAUUUUUUUAGCUCAUUUCCAGGGGUGGGAAUUUUUUUUUAACAUGUGUCAUGAAUAAAGUUGUUUUUGAAAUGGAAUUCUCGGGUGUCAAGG | 3.27 |
| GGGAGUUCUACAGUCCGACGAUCAAACAGCUCUAUAACAAAAUACAAUGCGGGUUCAUGUUAAUGUUUUUAUCUCUAACAGGUUGGUUUCAGUGCUGAUGAAACUUGGGACUCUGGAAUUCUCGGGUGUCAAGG | -1.29 |
| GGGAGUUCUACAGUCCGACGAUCCACAGACAACACGCACCCACACAGACAAAGAGGGAAGGGGUUGGGAUGGGGACAGGGUGCACAGCAGGGCGGGGUAGGACCCCAGCCCCUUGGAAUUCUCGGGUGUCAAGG | -0.265 |
| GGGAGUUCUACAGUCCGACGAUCUGGCCCUGGUGGCAUGCGGGGAGGAAGAGGUGGCCUCAUCGAUCGUGGUGGUCCCGGUGGAAUGUUCAGAGGUGGCCGUGGUGGAGACAGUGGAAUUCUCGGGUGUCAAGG | 1.4 |
| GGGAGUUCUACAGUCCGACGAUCUAAUUGUGAUCUACAUUUUAAAAUAUCAAGAGAUCGUCUCAGUGCUUCUUCCCUUACAAUGGAGAGUUUUGCUUUUCUUUGGGCUGGAGGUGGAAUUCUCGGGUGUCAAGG | -1.15 |
| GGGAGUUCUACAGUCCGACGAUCAGUCCUGUGCUACACAUCGUAUGUACCGAAUCGGUUUUUUUGGUUUGGAAAAAAAGGAAAGUAUUAUGUUACGCCGUUCGGAUCUGCACUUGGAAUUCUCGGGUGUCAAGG | -2.29 |
| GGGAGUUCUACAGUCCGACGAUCAGUCCUGUGCUACACAUCGUAUGUACCGAAUCGGAAAAAGGGAAAAAGGAAAAAGGGGAAAGUAUUAUGUUACGCCGUUCGGAUCUGCACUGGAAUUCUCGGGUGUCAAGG | -1.68 |
| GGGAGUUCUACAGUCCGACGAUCUGGGAGGUGGAUUUUGUUUAUUUUUUUAGCUCAUUUCCAGGGGUGGGAAUUUUUUUUUAAUAUGUGUCAUGCAUAAAGUUGUUUUUGAAAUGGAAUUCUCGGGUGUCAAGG | 3.52 |
| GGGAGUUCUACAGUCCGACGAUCGUCCUGUGCUACACAUCGUAUGUACCGAAUCGGGGAAAAAAAGGGGAGGGGUUUGGGGAAAGUAUUAUGUUACGCCGUUCGGAUCUGCACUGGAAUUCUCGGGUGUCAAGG | 1.9 |
| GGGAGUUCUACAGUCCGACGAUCGCAGGAAGUAAAAACGAAUGGAAAUGCUUCGGAUAGUGGCAGGGGUGGGGGUUGCUAAGGAAAGGGUGGGAUGGGAGUGGGUAAAGAGUUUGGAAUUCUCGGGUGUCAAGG | 1.9 |

Sample 4
Target: Prothrombin, mature alpha-thrombin (F2, Homo sapiens, UniProt P00734)
Method: aptamer microarray, sandwich
Molecule type: DNA with 2'F-ANA
Matrix: in vitro
Tested at: 200 nM
Notes: whole 15-mer aptamer, many near background
Together with: Cy3 exosite-II aptamer, 400 nM
Direction: higher = stronger binding
Strand: GGTTGGTGTGGTTGG
| Modification | mean fluorescence intensity [a.u.] |
| --- | --- |
| 2'F-ANA at 4 5 6 9 11 15 | 65.4 |
| 2'F-ANA at 2 5 7 8 9 11 | 94.8 |
| 2'F-ANA at 1 3 4 6 10 11 12 13 14 | 53.6 |
| 2'F-ANA at 1 2 3 6 7 8 9 10 12 14 | 56.5 |
| 2'F-ANA at 2 3 8 9 11 12 13 | 910 |
| 2'F-ANA at 4 7 10 11 12 13 15 | 92 |
| 2'F-ANA at 2 7 8 10 11 12 13 | 167 |
| 2'F-ANA at 6 9 10 11 12 13 14 15 | 98.7 |
| 2'F-ANA at 1 2 8 10 | 51.6 |
| 2'F-ANA at 2 6 8 12 15 | 729 |
| 2'F-ANA at 1 3 6 7 8 9 10 12 13 14 15 | 79.2 |
| 2'F-ANA at 4 5 7 9 10 13 14 15 | 50.9 |
| 2'F-ANA at 1 2 3 4 6 7 9 10 | 53.9 |
| 2'F-ANA at 2 9 10 11 12 14 15 | 86.2 |
| 2'F-ANA at 1 2 3 7 8 10 11 12 14 | 54.9 |
| 2'F-ANA at 1 2 3 4 5 7 8 9 12 13 | 74.4 |
| 2'F-ANA at 2 5 | 73.5 |
| 2'F-ANA at 2 3 4 5 6 10 14 | 50.6 |
| 2'F-ANA at 1 2 3 7 8 10 11 12 14 15 | 61.2 |

Sample 5
Target: PABPC1L2, full length, GST fusion (mouse, UniProt A0ABA7IW68)
Method: RNAcompete
Molecule type: RNA
Matrix: in vitro
Tested at: 20 nM
Notes: 7-mer, probes averaged, single round
Relative to: mean of 7-mers
Direction: higher = stronger binding
Construct (chain): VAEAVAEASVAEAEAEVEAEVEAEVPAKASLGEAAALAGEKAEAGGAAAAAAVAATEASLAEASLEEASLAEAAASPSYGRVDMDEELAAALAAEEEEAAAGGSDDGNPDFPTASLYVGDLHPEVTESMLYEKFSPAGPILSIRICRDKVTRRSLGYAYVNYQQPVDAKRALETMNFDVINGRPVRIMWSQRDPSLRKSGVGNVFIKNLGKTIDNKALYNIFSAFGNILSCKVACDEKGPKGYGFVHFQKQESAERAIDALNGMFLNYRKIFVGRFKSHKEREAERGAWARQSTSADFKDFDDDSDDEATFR
| Strand | 7-mer Z-score |
| --- | --- |
| UUAAAAG | 1.4 |
| AUGUCGA | -0.0899 |
| CGUUUGU | -0.547 |
| CCAAAAG | 1.19 |
| AAAAGGG | 3.9 |
| AAGUGCG | 0.361 |
| AUUGGUC | -0.155 |
| GUGCUUA | -0.079 |
| GCAACCC | 0.00798 |
| GCCCACC | -0.445 |
| CUUAAUG | -0.298 |
| GGCGGAA | 0.686 |
| AGGAGAU | 0.0623 |
| GUCGCUG | -0.229 |
| GAACGUU | -0.271 |
| GUCUCCC | -0.367 |
| ACUGGCA | 0.0823 |
| CUAUGUU | -0.416 |
| ACUACAC | -0.0953 |
| GAAUAAG | -0.0699 |

Some of these lines once more (sample 4):
| Modification | mean fluorescence intensity [a.u.] |
| --- | --- |
| 2'F-ANA at 4 7 10 11 12 13 15 | 92 |
| 2'F-ANA at 2 6 8 12 15 | 729 |
| 2'F-ANA at 2 7 8 10 11 12 13 | 167 |
| 2'F-ANA at 1 3 6 7 8 9 10 12 13 14 15 | 79.2 |
| 2'F-ANA at 2 3 8 9 11 12 13 | 910 |
| 2'F-ANA at 1 2 3 6 7 8 9 10 12 14 | 56.5 |
| 2'F-ANA at 6 9 10 11 12 13 14 15 | 98.7 |
| 2'F-ANA at 2 3 4 5 6 10 14 | 50.6 |
| 2'F-ANA at 1 3 4 6 10 11 12 13 14 | 53.6 |
| 2'F-ANA at 1 2 3 4 5 7 8 9 12 13 | 74.4 |
| 2'F-ANA at 1 2 3 7 8 10 11 12 14 15 | 61.2 |
| 2'F-ANA at 2 9 10 11 12 14 15 | 86.2 |
